Published values of several laboratories.
Every numbered part comes from another study and shows a few of its results, in no order.

Study 1
Target: Ras GTPase-activating protein-binding protein 1, RRM domain (G3BP1, Homo sapiens, UniProt Q13283)
UniProt Q13283, sequence (whole entry, looked up): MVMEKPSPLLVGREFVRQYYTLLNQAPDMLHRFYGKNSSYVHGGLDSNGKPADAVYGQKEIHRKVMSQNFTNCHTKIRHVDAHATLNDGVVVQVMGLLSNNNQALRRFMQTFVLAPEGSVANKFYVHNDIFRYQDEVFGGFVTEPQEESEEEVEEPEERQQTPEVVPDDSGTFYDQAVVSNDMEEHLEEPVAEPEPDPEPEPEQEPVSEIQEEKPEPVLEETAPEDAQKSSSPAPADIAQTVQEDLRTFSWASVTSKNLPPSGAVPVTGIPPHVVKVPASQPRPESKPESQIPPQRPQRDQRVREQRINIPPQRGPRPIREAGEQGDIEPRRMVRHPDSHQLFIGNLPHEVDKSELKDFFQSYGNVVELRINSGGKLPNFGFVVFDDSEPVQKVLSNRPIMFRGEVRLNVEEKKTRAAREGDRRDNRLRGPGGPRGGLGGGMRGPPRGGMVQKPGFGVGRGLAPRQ
Method: RNA Bind-n-Seq
Form: RNA
Sample: in vitro
Concentration: 1 µM
Setting: whole 134-nt RNA, ends assumed
With: 150 mM KCl
Relative to: input library
Direction: higher = stronger binding
Endpoint: log2 enrichment
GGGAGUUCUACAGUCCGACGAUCUAACUUUAGAGGAGGCUCUGAUGGAUAUGGCAGUGGACGUGGAUUUGGGGAUGGCUAUAAUGGGUAUGGAGGAGGACCUGGAGGUGGCAAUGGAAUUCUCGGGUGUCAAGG: -0.814
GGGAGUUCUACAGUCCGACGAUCAGUCCUGUGCUACACAUCGUAUGUACCGAAUCGGGAAAGGGUUUUUGGGUUUUUGGGAAAGUAUUAUGUUACGCCGUUCGGAUCUGCACUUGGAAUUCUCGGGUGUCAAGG: 0.326
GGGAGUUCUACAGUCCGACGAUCCUCAAGUCCUGUGCUACACAUCGUAUGUACCGAAUCGGAAGGGGAAGGGAAGGGAAAGUAUUAUGUUACGCCGUUCGGAUCUGCACUUCCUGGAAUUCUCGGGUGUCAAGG: 0.641
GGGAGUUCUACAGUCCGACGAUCUGUGCUACACAUCGUAUGUACCGAAUCGGGGUUUUUGGGGAAAAAAAGGGGAAAAAAAGGGGAAAGUAUUAUGUUACGCCGUUCGGAUCUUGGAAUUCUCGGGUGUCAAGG: 1.2
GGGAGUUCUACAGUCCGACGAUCAGUCCUGUGCUACACAUCGUAUGUACCGAAUCGGGGCCCCCGGCCCCCGGGCCCCCGGAAAGUAUUAUGUUACGCCGUUCGGAUCUGCACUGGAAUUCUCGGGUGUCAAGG: -0.764
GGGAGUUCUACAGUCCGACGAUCUCCUGUGCUACACAUCGUAUGUACCGAAUCGGGAAAAAAGGGAAAAAAGGGAAAAAAGGAAAGUAUUAUGUUACGCCGUUCGGAUCUGCAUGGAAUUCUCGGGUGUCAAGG: 0.0605
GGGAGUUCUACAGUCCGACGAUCACCAUGCAGGUGGGCAUCUUUGGGUAGUGGGGCAAGGGGGGGAUAGGGAGGGGGGUAACACUUUGGGAACAGGUGGUCCCAGGUCGUUUCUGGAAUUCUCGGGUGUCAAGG: -0.574
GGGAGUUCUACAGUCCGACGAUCUCCUGUGCUACACAUCGUAUGUACCGAAUCGGGAAAAAAGGGAAAAAAGGGAAAAAAGGGAAAGUAUUAUGUUACGCCGUUCGGAUCUGCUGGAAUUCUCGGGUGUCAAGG: 0.145
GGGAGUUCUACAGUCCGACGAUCUCCUGUGCUACACAUCGUAUGUACCGAAUCGGGAAAAAAGGGGAAAAAAGGAAAAAAGGGAAAGUAUUAUGUUACGCCGUUCGGAUCUGCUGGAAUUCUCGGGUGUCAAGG: 0.0395
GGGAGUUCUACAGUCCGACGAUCCAAGUCCUGUGCUACACAUCGUAUGUACCGAAUCGGGCCCGGGCCCGGGGCCCGGGAAAGUAUUAUGUUACGCCGUUCGGAUCUGCACUUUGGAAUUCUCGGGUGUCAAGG: -0.853

Study 2
Target: Eukaryotic initiation factor 4A-I (EIF4A1, Homo sapiens, UniProt P60842, residues 1-406, full length assumed)
UniProt P60842, sequence (whole entry, looked up): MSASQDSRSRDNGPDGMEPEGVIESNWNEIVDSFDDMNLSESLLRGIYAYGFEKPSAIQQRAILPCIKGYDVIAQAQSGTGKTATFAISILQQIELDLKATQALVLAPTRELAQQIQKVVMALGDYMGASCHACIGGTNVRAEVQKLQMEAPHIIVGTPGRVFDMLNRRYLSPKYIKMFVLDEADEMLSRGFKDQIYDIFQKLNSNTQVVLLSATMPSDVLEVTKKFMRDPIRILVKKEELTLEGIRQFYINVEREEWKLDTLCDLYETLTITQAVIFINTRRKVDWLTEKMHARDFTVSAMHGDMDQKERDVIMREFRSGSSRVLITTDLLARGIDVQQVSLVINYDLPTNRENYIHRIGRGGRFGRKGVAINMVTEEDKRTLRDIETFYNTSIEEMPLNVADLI
Method: RNA Bind-n-Seq
Form: RNA
Sample: in vitro
Concentration: 15 pmol
Setting: 4-mer, random 30-nt RNA, single round
With: 3 µM RocA, 2 mM AMP-PNP
Relative to: mean of 4-mers
Direction: higher = stronger binding
Endpoint: 4-mer enrichment Z-score
GCUC: -1.04
AGCC: -0.673
AGCA: -0.145
AAGA: 1.85
CCUC: -1.42
UAAG: 1.14
GAGA: 2.34
CCAU: -1.37
UAGG: 0.886
GUGU: 1.7
UGAG: 1.87
UGUU: 0.544
UAAC: -0.815
UAUU: -0.016
AUGC: -0.122
AACU: -0.416
CCCG: -0.58
UUUU: 0.479
CAUU: -1.3
CGCG: 0.486
UGGA: 1.33
CCGA: -0.304
UCCU: -1.15
CAUC: -1.64

Study 3
Target: Prothrombin, mature alpha-thrombin (F2, Homo sapiens, UniProt P00734)
Method: aptamer microarray, sandwich
Form: DNA with 2'F-ANA
Sample: in vitro
Concentration: 200 nM
Setting: whole 15-mer aptamer, many near background
With: Cy3 exosite-II aptamer, 400 nM
Direction: higher = stronger binding
Endpoint: mean fluorescence intensity
Oligonucleotide: GGTTGGTGTGGTTGG
2'F-ANA at 1 3 6 7 8 11 12 13: 458 a.u.
2'F-ANA at 3 5 7 8 11 12 14 15: 69 a.u.
2'F-ANA at 1 2 3 8 9 11 12 13 14 15: 92.9 a.u.
2'F-ANA at 1 2 4 6 7 10 13 15: 68.4 a.u.
2'F-ANA at 1 2 8 12 13 15: 362 a.u.
2'F-ANA at 3 4 6 8 12 13 14: 319 a.u.
2'F-ANA at 1 6 9 10 11 12 14 15: 58.8 a.u.
2'F-ANA at 1 6 8 9 10 11 13 14: 45.6 a.u.
2'F-ANA at 1 2 5 6 7 8 9 10 11 12 13 15: 65.2 a.u.
2'F-ANA at 3 4 8 9 10: 339 a.u.
2'F-ANA at 5 7 8 9 12 14 15: 49 a.u.
2'F-ANA at 1 4 7 11 13 14 15: 124 a.u.
2'F-ANA at 1 2 3 7 9 12 13 14 15: 92.6 a.u.
2'F-ANA at 1 2 9 10 12 14: 46 a.u.
2'F-ANA at 2 9 10 12 13 14: 87.1 a.u.
2'F-ANA at 1 2 3 6 7 9 11 12 13 15: 205 a.u.
2'F-ANA at 1 2 3 4 5 6 9 11 12 13: 68.5 a.u.
2'F-ANA at 2 3 5 6 8 13 14 15: 54 a.u.
2'F-ANA at 1 2 4 6 8 11 14 15: 49.5 a.u.
2'F-ANA at 3 5 6 8 9 10 11 13: 66.1 a.u.
2'F-ANA at 1 2 4 8 10 13: 102 a.u.
2'F-ANA at 3 8 11 12 14 15: 575 a.u.
2'F-ANA at 1 4 9 11 12: 203 a.u.
2'F-ANA at 1 2 4 8 12 14 15: 67.3 a.u.
2'F-ANA at 2 6 7 8 9 10 13 14: 113 a.u.

Study 4
Target: Protein C-ets-1 (ETS1, Homo sapiens, UniProt P14921, residues 1-441, K379A, full length assumed)
UniProt P14921, sequence (whole entry, unmodified, looked up): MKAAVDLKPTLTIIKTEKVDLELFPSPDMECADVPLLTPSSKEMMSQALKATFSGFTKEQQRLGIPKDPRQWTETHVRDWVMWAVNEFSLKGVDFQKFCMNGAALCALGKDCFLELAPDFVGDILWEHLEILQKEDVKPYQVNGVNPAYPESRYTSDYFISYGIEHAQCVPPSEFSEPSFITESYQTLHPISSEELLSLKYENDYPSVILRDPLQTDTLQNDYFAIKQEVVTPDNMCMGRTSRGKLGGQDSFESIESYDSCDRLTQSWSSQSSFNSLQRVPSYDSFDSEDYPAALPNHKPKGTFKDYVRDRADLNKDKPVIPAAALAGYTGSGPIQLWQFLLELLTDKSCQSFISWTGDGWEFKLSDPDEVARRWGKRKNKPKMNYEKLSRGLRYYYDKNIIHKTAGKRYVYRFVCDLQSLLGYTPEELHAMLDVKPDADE
Method: protein-binding microarray
Form: double-stranded DNA, one strand shown
Sample: in vitro
Concentration: not given
Setting: k-mer, scored over probes, only values ≥0.25
Direction: higher = stronger binding
Endpoint: E-score
CGGTAGTA: 0.294
CCGGAACC: 0.351
ATACACCG: 0.357
ACGTGTTC: 0.251
GTCGTTCA: 0.301
AACACCGG: 0.37
ATGTATTG: 0.266
CCCGGGAC: 0.343
CCGACAGA: 0.313
GTCGGTGA: 0.274
CCCGCCAC: 0.269
ACCGACCA: 0.295
AAATACCG: 0.364
ACCGGTGA: 0.38
GCCGGCAA: 0.327
CACATCCG: 0.298
GTAGGACA: 0.262
ACACCCGG: 0.308
ACTGCCGG: 0.311
ACTACCAT: 0.319
GCAATCAA: 0.277
GTCGGACA: 0.26
CCGGATAA: 0.327
GTAATGAC: 0.265
TAACCGGA: 0.38

Study 5
Target: Sal-like protein 4, full length isoform B (SALL4, Homo sapiens, UniProt Q9UJQ4-2, residues 1-616)
Method: universal PBM
Form: double-stranded DNA, one strand shown
Sample: in vitro
Concentration: not given
Setting: 8-mer, flanks averaged, mean of replicates
Direction: higher = stronger binding
Endpoint: E-score
Target sequence (chain): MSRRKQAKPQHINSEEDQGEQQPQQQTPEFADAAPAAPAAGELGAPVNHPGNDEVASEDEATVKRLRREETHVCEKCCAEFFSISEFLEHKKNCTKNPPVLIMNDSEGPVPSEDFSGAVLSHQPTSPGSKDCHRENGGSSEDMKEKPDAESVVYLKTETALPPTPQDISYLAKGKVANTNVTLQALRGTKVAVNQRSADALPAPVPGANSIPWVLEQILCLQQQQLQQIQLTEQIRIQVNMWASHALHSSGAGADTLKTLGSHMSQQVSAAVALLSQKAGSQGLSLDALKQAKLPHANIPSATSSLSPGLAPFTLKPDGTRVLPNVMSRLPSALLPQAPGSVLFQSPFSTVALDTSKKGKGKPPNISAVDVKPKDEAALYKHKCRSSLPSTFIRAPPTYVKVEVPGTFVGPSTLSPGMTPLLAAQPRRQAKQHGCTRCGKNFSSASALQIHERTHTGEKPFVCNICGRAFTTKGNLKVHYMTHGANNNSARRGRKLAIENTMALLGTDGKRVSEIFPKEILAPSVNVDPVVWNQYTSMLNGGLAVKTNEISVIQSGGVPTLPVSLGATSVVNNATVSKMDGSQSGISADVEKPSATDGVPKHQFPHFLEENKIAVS
CCGCACGA: -0.105
CTCCGCAC: -0.222
GAGATGCA: -0.08
AGTGAACA: 0.0659
AATTACCG: 0.0707
CCCTAGAA: 0.0344
CTATAGTC: 0.118
AGGCACAA: 0.0299
TAATGAAA: 0.34
ATGATCTA: 0.195
AAATTGCT: 0.121
CATGGCGC: -0.125
GGCTCTTA: -0.0215
AGGCAGCG: -0.236
AGTGCGTG: -0.206
AATCCTGT: 0.193
ATGTCTGA: 0.204
ACGTTCAA: 0.122
ACCAGGAT: -0.025
GGGAAAGA: -0.164
CCGCTGGA: -0.192
AATACTGT: 0.247
GCTGGTAC: -0.189
AGTACATG: 0.0357
AGTCTTTC: -0.0393
